Results from different studies.
A part holds a random share of what one study measured.

Set 1 — technique: protein binding microarray; form: double-stranded DNA, one strand shown; matrix: in vitro; concentration: not given; baseline: not given; reading: higher = stronger binding
Target: Histone acetyltransferase KAT6A, winged helix 2, GST fusion (KAT6A, Homo sapiens, UniProt Q92794, residues 85-181)
Setting: 8-mer, flanks averaged, mean of 2 arrays, mostly near background
Target sequence (chain): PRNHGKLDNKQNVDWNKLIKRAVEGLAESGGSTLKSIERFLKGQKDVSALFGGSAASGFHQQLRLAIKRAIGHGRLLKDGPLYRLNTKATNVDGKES
| Strand | E-score |
| --- | --- |
| CGGCCTGA | 0.0554 |
| CGCCGTGC | 0.194 |
| GCTCTGGA | 0.149 |
| TGGCAACA | 0.0118 |
| CGCCATGA | -0.0505 |
| ACAAATGA | -0.0455 |
| TCAATCAA | 0.0154 |
| CCGCTCCG | 0.211 |

Set 2 — technique: universal PBM; form: double-stranded DNA, one strand shown; matrix: in vitro; concentration: not given; reading: higher = stronger binding
Target: Sal-like protein 4, full length isoform B (SALL4, Homo sapiens, UniProt Q9UJQ4-2, residues 1-616)
Setting: 8-mer, flanks averaged, mean of replicates
| Strand | E-score |
| --- | --- |
| TATTGGCA | 0.129 |
| AGGGCACA | -0.0172 |
| CCTACTCA | -0.152 |
| CCCGTGCA | -0.273 |
| ATAAAGGA | 0.232 |
| CTCCGGGA | -0.241 |
| ATCTGCGG | -0.0282 |
| CTTGTTGC | 0.0315 |

Set 3 — observed: ligand displacement; concentration: 10 µM
Target: D(4) dopamine receptor (DRD4, Homo sapiens, UniProt P21917)
UniProt P21917, sequence (whole entry, looked up): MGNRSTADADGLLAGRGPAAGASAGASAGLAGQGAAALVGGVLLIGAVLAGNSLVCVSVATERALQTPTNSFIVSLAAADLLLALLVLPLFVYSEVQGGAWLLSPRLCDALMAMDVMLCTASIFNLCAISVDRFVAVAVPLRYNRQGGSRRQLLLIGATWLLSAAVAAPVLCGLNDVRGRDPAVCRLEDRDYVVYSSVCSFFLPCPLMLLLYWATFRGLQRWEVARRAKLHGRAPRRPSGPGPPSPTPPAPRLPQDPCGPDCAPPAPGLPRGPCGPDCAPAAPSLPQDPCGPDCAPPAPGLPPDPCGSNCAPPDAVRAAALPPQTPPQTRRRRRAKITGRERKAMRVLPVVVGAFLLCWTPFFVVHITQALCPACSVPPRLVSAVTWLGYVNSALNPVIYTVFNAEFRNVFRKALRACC
| Structure (SMILES) | inhibition [%] |
| --- | --- |
| CN(C)CC#Cc1ccc(OCCCc2sc(N3CCc4cccc(C(=O)Nc5nc6ccccc6s5)c4C3)nc2C(=O)O)c(F)c1 | -3.48 |
| C[C@@H](c1cccc(C#N)c1)n1cc(Cl)cc(C(N)=O)c1=N | 10.1 |
| CS(=O)(=O)N1CCCC(NC(=O)[C@H](CCC2CCCCC2)NC(=O)c2ccc(CNC(=O)c3cnc4ccccn34)cc2)C1 (stereo partly shown) | 3.78 |
| COCCOc1nc(-c2ccc(Cl)nc2)nc2c1CN(C(=O)c1ncn3ccccc13)CC2 | 15.7 |
| O=C(N[C@H]1CCCCC/C=C\C2C[C@@]2(C(=O)O)NC(=O)[C@@H]2C[C@@H](Oc3ccncc3)CN2C1=O)OC1CCCC1 (stereo partly shown) | 9.26 |
| CN(C)C(=O)c1sc2nc(N3CCC(S(C)(=O)=O)CC3)cc(C(F)(F)F)c2c1N | 4.15 |
| Cc1ncc(-c2cc(Cl)ccc2F)cc1-n1c(=O)n(CC(N)=O)c2ccccc21 | -1.38 |
| COc1cc(N[C@@H]2CCCC[C@]2(O)C(F)(F)F)ccc1F | 6.32 |
| CC1CCN(c2ccnc(NCc3cn(C)cn3)n2)CC1 | 3.89 |
| Nc1nc(NCc2ccccc2)nc(-c2cccc(CO)c2)n1 | 24.4 |
| Nc1nc(NCc2ccccc2)nc(-c2ccccc2CO)n1 | 4.35 |
| N#CC1(c2ccccn2)CCN(Cc2cc(C(=O)N3CCCC3)c(=O)n3ccccc23)CC1 | -8.64 |
| O=C(NS(=O)(=O)c1ccc(NCC2CCOCC2)c([N+](=O)[O-])c1)c1ccc(N2CCN(Cc3ccc(C(F)(F)F)cc3-c3ccc(Cl)cc3)CC2)cc1Oc1cnc2[nH]ccc2c1 | -34.4 |
| Nc1cnc(N2CCc3cc(S(=O)(=O)Nc4c(F)cc(Cl)cc4F)cc(N4CCCC4=O)c32)nc1 | -5.02 |

Set 4 — species: human; matrix: microsomes or S9; concentration: 2 µM; time: 0.5 h
| SMILES | remaining compound [%] |
| --- | --- |
| O=C(NCCCCCCNC(=O)N1CCCCC1)N1CCCCC1 | > 99.9 |
| Cc1ccccc1Cn1c(=O)n(Cc2ccc(F)cc2)c(=O)c2nccnc21 | 108 |
| Oc1cc(-c2cccc(-c3ccc4c(c3)OCO4)c2)nn1-c1ccccn1 | 20.4 |
| Nc1c(NC(=O)N2CCCC2)c(-c2ccc(Cl)cc2)nn1-c1cc(F)ccc1F | 83.6 |

Excerpt of the above (set 3):
| Structure (SMILES) | inhibition [%] |
| --- | --- |
| CN(C)CC#Cc1ccc(OCCCc2sc(N3CCc4cccc(C(=O)Nc5nc6ccccc6s5)c4C3)nc2C(=O)O)c(F)c1 | -3.48 |
| C[C@@H](c1cccc(C#N)c1)n1cc(Cl)cc(C(N)=O)c1=N | 10.1 |
| CS(=O)(=O)N1CCCC(NC(=O)[C@H](CCC2CCCCC2)NC(=O)c2ccc(CNC(=O)c3cnc4ccccn34)cc2)C1 (stereo partly shown) | 3.78 |
